{"data": "Results collected from several papers", "note": "Numbered parts are unrelated; each lists some results of a single study. Changes are numbered by the printed parent chain."}
{"data": "Sample 1", "target": "Sal-like protein 4, full length isoform B (SALL4, Homo sapiens, UniProt Q9UJQ4-2, residues 1-616)", "technique": "universal PBM", "form": "double-stranded DNA, one strand shown", "matrix": "in vitro", "concentration": "not given", "setting": "8-mer, flanks averaged, mean of replicates", "reading": "higher = stronger binding"}
{"Oligonucleotide": "AACCAAGG", "E-score": 0.0538}
{"Oligonucleotide": "AATGACCC", "E-score": -0.159}
{"Oligonucleotide": "CCCTCAGC", "E-score": -0.228}
{"Oligonucleotide": "CCACATAC", "E-score": 0.0738}
{"Oligonucleotide": "CCCGCACA", "E-score": -0.228}
{"Oligonucleotide": "ATCACCAA", "E-score": 0.126}
{"Oligonucleotide": "CTACAGAG", "E-score": 0.0404}
{"Oligonucleotide": "CCCGTTAG", "E-score": -0.194}
{"Oligonucleotide": "AAGGATGG", "E-score": 0.0257}
{"Oligonucleotide": "AAGGCCAA", "E-score": -0.098}
{"Oligonucleotide": "GAGTTGGC", "E-score": -0.238}
{"Oligonucleotide": "AACGCTTG", "E-score": -0.103}
{"Oligonucleotide": "AGAAAACC", "E-score": -0.0192}
{"Oligonucleotide": "AGATGCAA", "E-score": 0.0914}
{"Oligonucleotide": "GCCATACA", "E-score": 0.0675}
{"Oligonucleotide": "GATCGTGA", "E-score": -0.00083}
{"Oligonucleotide": "CCGCACCG", "E-score": -0.304}
{"Oligonucleotide": "AACGGCTA", "E-score": -0.0124}
{"Oligonucleotide": "GTCTCCAA", "E-score": 0.144}
{"Oligonucleotide": "ATGGCATA", "E-score": 0.205}
{"Oligonucleotide": "GAAGTGCA", "E-score": -0.00212}
{"Oligonucleotide": "GCGCCGGA", "E-score": -0.386}
{"Oligonucleotide": "TTGTGAAA", "E-score": 0.122}
{"Oligonucleotide": "AGGGCGAG", "E-score": -0.28}
{"Oligonucleotide": "ACTGACCT", "E-score": -0.0066}
{"data": "Sample 2", "target": "CCND2, cyclin fold, Cln2 fusion (human)", "technique": "yeast growth competition, sequencing", "matrix": "yeast", "setting": "weak parent motif", "relative to": "not given", "reading": "higher = stronger binding", "parent": "PKMYT1 docking peptide (human); SFEPRNLLSLFED"}
{"Variant": "SFEPRNLRSLFED [L8R]", "normalised enrichment score": 0.163}
{"Variant": "SFEPRNGLSLFED [L7G]", "normalised enrichment score": -0.00203}
{"Variant": "SFEPHNLLSLFED [R5H]", "normalised enrichment score": -0.287}
{"Variant": "SFEPRNLLILFED [S9I]", "normalised enrichment score": -0.0401}
{"Variant": "SFEPRYLLSLFED [N6Y]", "normalised enrichment score": 0.135}
{"Variant": "SFEPRNLLSLFEP [D13P]", "normalised enrichment score": 0.152}
{"Variant": "SFEDRNLLSLFED [P4D]", "normalised enrichment score": 0.0537}
{"Variant": "SFEPQNLLSLFED [R5Q]", "normalised enrichment score": 0.309}
{"Variant": "SFEPRNLLSLNED [F11N]", "normalised enrichment score": -0.0314}
{"Variant": "SFEPCNLLSLFED [R5C]", "normalised enrichment score": 0.144}
{"Variant": "SFEPRNLLSLHED [F11H]", "normalised enrichment score": 0.0464}
{"Variant": "SFEPRNLLSPFED [L10P]", "normalised enrichment score": -0.185}
{"Variant": "SFTPRNLLSLFED [E3T]", "normalised enrichment score": -0.0347}
{"Variant": "NFEPRNLLSLFED [S1N]", "normalised enrichment score": 0.102}
{"Variant": "SFEPRNLLSLFEA [D13A]", "normalised enrichment score": 0.164}
{"Variant": "SFEPRNLGSLFED [L8G]", "normalised enrichment score": -0.14}
{"Variant": "SFEPRNILSLFED [L7I]", "normalised enrichment score": -0.0666}
{"Variant": "SFEPRNLLPLFED [S9P]", "normalised enrichment score": 0.0736}
{"Variant": "SFEPRNHLSLFED [L7H]", "normalised enrichment score": 0.308}
{"Variant": "SFFPRNLLSLFED [E3F]", "normalised enrichment score": -0.236}
{"Variant": "SFEPRNLLSMFED [L10M]", "normalised enrichment score": 0.22}
{"Variant": "SFEPRNLLSYFED [L10Y]", "normalised enrichment score": -0.132}
{"Variant": "SFEPRNLDSLFED [L8D]", "normalised enrichment score": -0.35}
{"Variant": "SIEPRNLLSLFED [F2I]", "normalised enrichment score": -0.308}
{"Variant": "SFEPFNLLSLFED [R5F]", "normalised enrichment score": -0.0651}
{"data": "Sample 3", "target": "ABI1, truncated, D143A, DHFR fusion (Arabidopsis thaliana)", "technique": "DHFR PCA, deep sequencing", "matrix": "yeast", "setting": "methotrexate growth selection, single substitutions", "together with": "(+)-ABA 2500 µM", "relative to": "wild-type fitted maximum", "reading": "higher = stronger binding", "parent": "PYL1, truncated, DHFR fusion (Arabidopsis thaliana); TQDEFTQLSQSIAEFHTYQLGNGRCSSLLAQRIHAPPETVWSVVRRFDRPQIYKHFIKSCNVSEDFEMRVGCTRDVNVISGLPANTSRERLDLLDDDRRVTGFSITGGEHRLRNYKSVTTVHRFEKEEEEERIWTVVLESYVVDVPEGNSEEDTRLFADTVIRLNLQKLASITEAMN"}
{"Variant": "L169Y", "relative binding score [%]": 11.5}
{"Variant": "E38Q", "relative binding score [%]": 86.3}
{"Variant": "T135M", "relative binding score [%]": -0.271}
{"Variant": "F124V", "relative binding score [%]": 108}
{"Variant": "N177Q", "relative binding score [%]": 82.7}
{"Variant": "G148D", "relative binding score [%]": 91.1}
{"Variant": "V143C", "relative binding score [%]": 95.2}
{"Variant": "L138Y", "relative binding score [%]": 104}
{"Variant": "L166E", "relative binding score [%]": 4.58}
{"Variant": "E38I", "relative binding score [%]": 88.6}
{"Variant": "C60D", "relative binding score [%]": 32.9}
{"Variant": "T17D", "relative binding score [%]": 100}
{"Variant": "T154P", "relative binding score [%]": 55.4}
{"Variant": "Y53K", "relative binding score [%]": 51}
{"Variant": "W41S", "relative binding score [%]": -5.08}
{"data": "Sample 4", "target": "Histone acetyltransferase KAT6A, winged helix 1, GST fusion (KAT6A, Homo sapiens, UniProt Q92794, residues 1-85)", "technique": "protein binding microarray", "form": "double-stranded DNA, one strand shown", "matrix": "in vitro", "concentration": "not given", "setting": "8-mer, flanks averaged, mean of 2 arrays, mostly near background", "relative to": "not given", "reading": "higher = stronger binding", "Residues (chain)": "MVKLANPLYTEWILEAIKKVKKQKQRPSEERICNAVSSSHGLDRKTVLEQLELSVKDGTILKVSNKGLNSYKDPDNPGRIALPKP"}
{"Oligonucleotide": "ACTCGAAA", "E-score": -0.184}
{"Oligonucleotide": "AGTCTCGA", "E-score": -0.183}
{"Oligonucleotide": "AGTACGGC", "E-score": 0.398}
{"Oligonucleotide": "CCTTCTGA", "E-score": -0.145}
{"Oligonucleotide": "TACATCCA", "E-score": -0.135}
{"Oligonucleotide": "AATTTCGC", "E-score": -0.0305}
{"Oligonucleotide": "AGGAGCAC", "E-score": -0.194}
{"Oligonucleotide": "ACGCAGGA", "E-score": -0.0966}
{"Oligonucleotide": "AATTCCGT", "E-score": 0.0908}
{"Oligonucleotide": "AAACTGTG", "E-score": -0.274}
{"Oligonucleotide": "GGCATCAA", "E-score": -0.0144}
{"Oligonucleotide": "AAGATGGA", "E-score": -0.0654}
{"Oligonucleotide": "CGAGGTGC", "E-score": 0.0937}
{"Oligonucleotide": "CGCTCCCG", "E-score": 0.346}
{"Oligonucleotide": "ACTTCGGA", "E-score": -0.0853}
{"Oligonucleotide": "CAGGAGCC", "E-score": 0.0179}
{"Oligonucleotide": "ATTAGTCG", "E-score": -0.0988}
{"Oligonucleotide": "ACATAGCC", "E-score": -0.0648}
{"Oligonucleotide": "TGACGGAA", "E-score": 0.223}
{"Oligonucleotide": "AGGGCTCG", "E-score": 0.109}
{"Oligonucleotide": "ATTCGGAC", "E-score": 0.0868}
{"Oligonucleotide": "AGGAAAGC", "E-score": 0.0599}
{"Oligonucleotide": "AGGAGGAT", "E-score": -0.152}
{"Oligonucleotide": "GTCACGAA", "E-score": -0.0561}
{"Oligonucleotide": "CATAAGTA", "E-score": -0.085}
{"note": "For quick reference, copied from above (sample 2):"}
{"Variant": "SFEPRNLLPLFED [S9P]", "normalised enrichment score": 0.0736}
{"Variant": "SFEDRNLLSLFED [P4D]", "normalised enrichment score": 0.0537}
{"Variant": "SFEPRNLLILFED [S9I]", "normalised enrichment score": -0.0401}
{"Variant": "SFEPRNLDSLFED [L8D]", "normalised enrichment score": -0.35}
{"Variant": "SIEPRNLLSLFED [F2I]", "normalised enrichment score": -0.308}
{"Variant": "SFFPRNLLSLFED [E3F]", "normalised enrichment score": -0.236}
{"Variant": "SFEPRNHLSLFED [L7H]", "normalised enrichment score": 0.308}
{"Variant": "SFEPRNLRSLFED [L8R]", "normalised enrichment score": 0.163}
{"Variant": "SFEPRNLLSLFEA [D13A]", "normalised enrichment score": 0.164}
{"Variant": "SFEPCNLLSLFED [R5C]", "normalised enrichment score": 0.144}
